{"data": "Measurements collected from several papers", "CNR1 V171A": "Cannabinoid receptor 1 (CNR1, Homo sapiens, UniProt P21554, V171A)", "CNR1": "Cannabinoid receptor 1 (CNR1, Homo sapiens, UniProt P21554)", "note": "± gives the spread as reported.", "sequence of UniProt P21554 (whole entry, unmodified, looked up)": "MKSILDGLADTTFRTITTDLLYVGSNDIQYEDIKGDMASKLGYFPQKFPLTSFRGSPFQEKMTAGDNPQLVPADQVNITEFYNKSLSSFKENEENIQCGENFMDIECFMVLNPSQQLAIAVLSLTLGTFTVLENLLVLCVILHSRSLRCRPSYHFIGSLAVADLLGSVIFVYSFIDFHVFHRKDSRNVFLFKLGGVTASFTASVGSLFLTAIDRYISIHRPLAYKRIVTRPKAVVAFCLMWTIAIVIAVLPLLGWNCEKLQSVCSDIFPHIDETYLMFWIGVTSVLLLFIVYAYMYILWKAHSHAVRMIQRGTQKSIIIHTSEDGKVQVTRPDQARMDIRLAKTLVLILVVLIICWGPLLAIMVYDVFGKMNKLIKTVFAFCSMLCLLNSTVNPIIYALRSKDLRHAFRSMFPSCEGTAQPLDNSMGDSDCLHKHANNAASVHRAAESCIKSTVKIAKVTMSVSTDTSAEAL"}
{"Compound": "COc1ccccc1C(C[N+](=O)[O-])c1c(-c2ccccc2)[nH]c2ccccc12 (stereo not shown)", "target": "CNR1 V171A", "read-out": "Gαi1-γ2 dissociation", "method": "BRET", "Emax [%]": "67.4 ± 6.48"}
{"Compound": "CCCCCn1ccc(C(=O)NC(C)(C)c2ccc(NC(C)=O)cc2Cl)n1", "target": "CNR1", "read-out": "calcium signal", "mode": "agonist", "method": "fluorescence", "Emax [%]": 71}
{"Compound": "CCCCCn1cc(C(=O)c2cccc3ccccc23)c2ccccc21", "target": "CNR1", "read-out": "Gαi1 activation", "mode": "agonist", "method": "BRET", "relative to": "reference agonist", "Emax [%]": "144 ± 9.2"}
{"Compound": "COC(=O)[C@@H](NC(=O)c1nn(Cc2ccc(F)cc2)c2cc(OCCCCNC(N)=O)ccc12)C(C)(C)C", "target": "CNR1", "read-out": "β-arrestin-1 recruitment", "mode": "agonist", "relative to": "FUB", "Emax [%]": "110 ± 10"}
{"Compound": "CCCCCn1cc(C(=O)c2ccc3c(c2)CC(C)(C)C3)c2ccccc21", "target": "CNR1", "read-out": "cAMP inhibition", "mode": "agonist", "method": "CAMYEL BRET biosensor", "added": "forskolin 10 µM", "relative to": "reference agonist at wild type", "Emax [%]": "80.9 ± 12.5"}
{"Compound": "CCCCCn1ccc(C(=O)NC(C)(C)c2ccccc2F)n1", "target": "CNR1", "read-out": "calcium signal", "mode": "agonist", "method": "fluorescence", "Emax [%]": 65}
{"Compound": "Cc1ccc2c(C(C[N+](=O)[O-])c3cccs3)c(-c3ccccc3)[nH]c2c1 (stereo not shown)", "target": "CNR1 V171A", "read-out": "Gαi1-γ2 dissociation", "method": "BRET", "Emax [%]": "67.4 ± 4.78"}
{"Compound": "CCCCCn1ccc(C(=O)N[C@@H](C)c2ccccc2)n1", "target": "CNR1", "read-out": "calcium signal", "mode": "agonist", "method": "fluorescence", "Emax [%]": 28}
{"Compound": "O=[N+]([O-])CC(c1ccco1)c1c(-c2ccccc2)[nH]c2ccccc12 (stereo not shown)", "target": "Cannabinoid receptor 1, with GoB (CNR1, Homo sapiens, UniProt P21554)", "read-out": "GoB dissociation", "mode": "agonist", "method": "BRET", "Emax [%]": "29.1 ± 2.15"}
{"Compound": "CCCCCn1cc(C(=O)c2ccc3ccccc3c2)c2ccccc21", "target": "CNR1 (Homo sapiens, UniProt P21554, H178A)", "read-out": "Gαi1 engagement", "mode": "agonist", "method": "BRET", "relative to": "reference agonist at wild-type CB1", "Emax [%]": "30.5 ± 2.6"}
{"note": "For quick reference, copied from above:"}
{"Compound": "O=[N+]([O-])CC(c1ccco1)c1c(-c2ccccc2)[nH]c2ccccc12 (stereo not shown)", "target": "Cannabinoid receptor 1, with GoB (CNR1, Homo sapiens, UniProt P21554)", "read-out": "GoB dissociation", "mode": "agonist", "method": "BRET", "Emax [%]": "29.1 ± 2.15"}
